Published values from different studies.
Protocols differ between the studies behind these lines. Several values in a cell are separate wells, animals, samples, runs or records. ± gives the spread as reported.
PPO3: PPO3 (Agaricus bisporus, UniProt C7FF04)
Chain of UniProt C7FF04 (whole entry, looked up): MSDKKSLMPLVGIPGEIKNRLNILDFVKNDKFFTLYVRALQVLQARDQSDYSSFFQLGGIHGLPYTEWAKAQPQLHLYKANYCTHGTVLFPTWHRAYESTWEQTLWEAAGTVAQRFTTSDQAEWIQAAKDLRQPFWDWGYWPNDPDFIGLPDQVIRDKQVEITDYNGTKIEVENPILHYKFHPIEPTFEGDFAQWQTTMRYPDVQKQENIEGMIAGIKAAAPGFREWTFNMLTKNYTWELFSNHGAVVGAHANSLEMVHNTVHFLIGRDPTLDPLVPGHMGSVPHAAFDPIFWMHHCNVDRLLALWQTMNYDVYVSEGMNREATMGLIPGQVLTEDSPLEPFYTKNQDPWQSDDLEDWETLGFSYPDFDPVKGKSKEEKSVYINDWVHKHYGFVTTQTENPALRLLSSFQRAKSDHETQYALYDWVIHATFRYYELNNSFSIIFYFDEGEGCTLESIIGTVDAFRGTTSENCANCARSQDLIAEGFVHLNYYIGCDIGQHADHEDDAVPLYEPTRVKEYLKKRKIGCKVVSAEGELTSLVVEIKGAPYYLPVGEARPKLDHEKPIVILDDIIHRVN
Proteasome subunit alpha type-2/Proteasome subunit alpha type-6 20S proteasome: Proteasome subunit alpha type-2/Proteasome subunit alpha type-6, 20S proteasome (Homo sapiens, UniProt P25787+P60900)
Chain of UniProt P60900 (whole entry, looked up): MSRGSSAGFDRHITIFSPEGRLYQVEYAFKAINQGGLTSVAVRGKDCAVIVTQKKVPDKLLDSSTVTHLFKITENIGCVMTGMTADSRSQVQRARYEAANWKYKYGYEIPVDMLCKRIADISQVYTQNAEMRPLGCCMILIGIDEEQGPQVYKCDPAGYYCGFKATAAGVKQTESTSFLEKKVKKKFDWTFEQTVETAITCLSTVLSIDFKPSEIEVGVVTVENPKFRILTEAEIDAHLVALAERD
Chain of UniProt P25787 (whole entry, looked up): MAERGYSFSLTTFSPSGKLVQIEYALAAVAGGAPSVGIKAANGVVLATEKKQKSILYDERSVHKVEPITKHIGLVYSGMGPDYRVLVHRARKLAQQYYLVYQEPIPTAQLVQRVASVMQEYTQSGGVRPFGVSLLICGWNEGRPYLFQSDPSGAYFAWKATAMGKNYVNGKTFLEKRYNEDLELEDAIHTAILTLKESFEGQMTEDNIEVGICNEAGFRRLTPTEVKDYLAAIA
T1: dsDNA, hairpin; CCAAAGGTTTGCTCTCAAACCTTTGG
T2: dsDNA, hairpin duplex; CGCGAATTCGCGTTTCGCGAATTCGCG
T3: dsDNA; GCGCGAATTCGCGC
Chain of UniProt Q9UH17 (whole entry, looked up): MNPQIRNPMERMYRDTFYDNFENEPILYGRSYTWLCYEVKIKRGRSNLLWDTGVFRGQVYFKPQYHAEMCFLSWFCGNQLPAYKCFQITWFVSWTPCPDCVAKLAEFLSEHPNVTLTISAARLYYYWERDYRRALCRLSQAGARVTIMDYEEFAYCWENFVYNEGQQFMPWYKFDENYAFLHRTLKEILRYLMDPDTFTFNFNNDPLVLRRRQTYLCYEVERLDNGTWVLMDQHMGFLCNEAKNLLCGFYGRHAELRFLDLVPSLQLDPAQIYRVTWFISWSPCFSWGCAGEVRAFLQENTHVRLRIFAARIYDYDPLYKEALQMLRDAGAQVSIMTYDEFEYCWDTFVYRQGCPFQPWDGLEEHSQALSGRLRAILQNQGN
Chain of UniProt Q6P988 (whole entry, looked up): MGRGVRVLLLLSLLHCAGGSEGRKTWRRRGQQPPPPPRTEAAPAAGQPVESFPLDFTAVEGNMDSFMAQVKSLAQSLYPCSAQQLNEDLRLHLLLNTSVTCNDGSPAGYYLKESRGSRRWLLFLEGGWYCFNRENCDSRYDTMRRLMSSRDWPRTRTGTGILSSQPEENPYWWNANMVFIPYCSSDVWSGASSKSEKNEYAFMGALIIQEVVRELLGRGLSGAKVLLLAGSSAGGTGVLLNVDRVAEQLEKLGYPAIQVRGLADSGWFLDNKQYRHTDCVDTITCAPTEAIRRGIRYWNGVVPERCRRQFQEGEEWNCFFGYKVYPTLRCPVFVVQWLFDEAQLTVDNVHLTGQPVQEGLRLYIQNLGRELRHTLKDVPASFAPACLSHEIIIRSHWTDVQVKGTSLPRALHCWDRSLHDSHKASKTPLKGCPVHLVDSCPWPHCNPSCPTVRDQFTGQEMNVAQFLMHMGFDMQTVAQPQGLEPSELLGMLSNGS
Chain of UniProt P11597 (whole entry, looked up): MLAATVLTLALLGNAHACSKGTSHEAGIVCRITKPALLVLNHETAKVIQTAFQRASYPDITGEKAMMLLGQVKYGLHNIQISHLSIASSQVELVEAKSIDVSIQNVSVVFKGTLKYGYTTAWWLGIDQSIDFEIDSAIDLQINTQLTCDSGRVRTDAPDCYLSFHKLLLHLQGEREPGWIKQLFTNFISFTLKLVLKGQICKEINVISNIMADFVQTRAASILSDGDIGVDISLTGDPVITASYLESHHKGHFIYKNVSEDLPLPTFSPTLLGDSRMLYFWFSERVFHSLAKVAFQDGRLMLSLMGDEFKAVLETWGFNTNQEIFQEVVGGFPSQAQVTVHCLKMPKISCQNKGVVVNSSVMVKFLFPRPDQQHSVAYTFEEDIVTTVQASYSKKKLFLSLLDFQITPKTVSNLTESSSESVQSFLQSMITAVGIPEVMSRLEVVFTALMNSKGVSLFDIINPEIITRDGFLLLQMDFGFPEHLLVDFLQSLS
Chain of UniProt P14780 (whole entry, looked up): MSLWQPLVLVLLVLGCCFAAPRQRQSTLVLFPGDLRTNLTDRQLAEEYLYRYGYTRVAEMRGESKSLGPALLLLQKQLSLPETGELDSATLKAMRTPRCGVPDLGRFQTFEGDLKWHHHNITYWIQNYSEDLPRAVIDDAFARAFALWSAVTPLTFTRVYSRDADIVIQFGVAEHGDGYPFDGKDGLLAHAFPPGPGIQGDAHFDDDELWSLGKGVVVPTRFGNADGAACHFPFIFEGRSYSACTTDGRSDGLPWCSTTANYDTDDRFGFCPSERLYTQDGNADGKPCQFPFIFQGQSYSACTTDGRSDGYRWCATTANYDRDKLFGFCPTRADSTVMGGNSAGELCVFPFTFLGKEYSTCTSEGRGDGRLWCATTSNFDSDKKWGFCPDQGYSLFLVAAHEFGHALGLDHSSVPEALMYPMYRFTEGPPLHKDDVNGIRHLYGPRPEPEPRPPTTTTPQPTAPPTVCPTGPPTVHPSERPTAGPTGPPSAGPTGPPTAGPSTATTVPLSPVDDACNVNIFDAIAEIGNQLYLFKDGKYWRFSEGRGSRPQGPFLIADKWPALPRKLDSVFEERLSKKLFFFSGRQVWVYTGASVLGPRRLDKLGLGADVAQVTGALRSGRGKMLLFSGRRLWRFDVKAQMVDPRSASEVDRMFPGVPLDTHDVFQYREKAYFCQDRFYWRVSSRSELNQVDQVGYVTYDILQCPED
Chain of UniProt Q6UWW8 (whole entry, looked up): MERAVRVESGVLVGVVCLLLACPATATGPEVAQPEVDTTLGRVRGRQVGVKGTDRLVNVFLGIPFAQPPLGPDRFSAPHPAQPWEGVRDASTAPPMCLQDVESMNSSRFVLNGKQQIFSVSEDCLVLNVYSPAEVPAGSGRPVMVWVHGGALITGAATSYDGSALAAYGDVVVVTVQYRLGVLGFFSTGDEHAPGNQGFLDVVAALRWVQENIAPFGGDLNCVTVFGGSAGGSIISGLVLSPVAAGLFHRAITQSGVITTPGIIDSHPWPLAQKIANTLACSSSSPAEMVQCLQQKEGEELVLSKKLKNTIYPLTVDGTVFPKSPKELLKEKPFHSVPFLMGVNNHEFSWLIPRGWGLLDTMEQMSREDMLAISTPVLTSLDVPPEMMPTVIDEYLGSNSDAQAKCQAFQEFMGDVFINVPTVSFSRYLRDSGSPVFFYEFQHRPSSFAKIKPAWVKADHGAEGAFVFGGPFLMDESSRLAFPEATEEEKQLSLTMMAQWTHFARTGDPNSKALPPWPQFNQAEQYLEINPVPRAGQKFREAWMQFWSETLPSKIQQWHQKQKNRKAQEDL
Chain of UniProt P57790 (whole entry, looked up): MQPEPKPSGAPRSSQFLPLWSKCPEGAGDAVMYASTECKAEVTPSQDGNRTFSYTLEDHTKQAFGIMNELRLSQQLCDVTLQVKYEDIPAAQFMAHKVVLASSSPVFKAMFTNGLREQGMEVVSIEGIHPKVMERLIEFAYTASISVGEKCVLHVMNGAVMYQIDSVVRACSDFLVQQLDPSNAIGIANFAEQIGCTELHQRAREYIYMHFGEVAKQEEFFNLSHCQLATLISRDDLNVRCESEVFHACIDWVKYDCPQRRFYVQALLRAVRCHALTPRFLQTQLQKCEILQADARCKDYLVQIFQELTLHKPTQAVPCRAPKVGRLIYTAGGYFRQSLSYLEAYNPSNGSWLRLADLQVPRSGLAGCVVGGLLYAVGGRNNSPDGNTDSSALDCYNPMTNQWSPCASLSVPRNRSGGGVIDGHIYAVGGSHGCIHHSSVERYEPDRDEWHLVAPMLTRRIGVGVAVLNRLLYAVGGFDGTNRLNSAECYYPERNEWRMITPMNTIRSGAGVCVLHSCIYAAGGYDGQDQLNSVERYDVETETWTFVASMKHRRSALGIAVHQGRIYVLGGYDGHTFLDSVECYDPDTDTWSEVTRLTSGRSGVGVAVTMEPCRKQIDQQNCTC
Chain of UniProt Q13951 (whole entry, looked up): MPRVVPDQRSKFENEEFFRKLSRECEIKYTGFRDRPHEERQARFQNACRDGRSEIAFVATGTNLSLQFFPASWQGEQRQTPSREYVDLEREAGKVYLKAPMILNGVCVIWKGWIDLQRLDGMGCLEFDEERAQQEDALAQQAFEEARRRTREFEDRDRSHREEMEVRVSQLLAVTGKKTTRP
Chain of UniProt P41145 (whole entry, looked up): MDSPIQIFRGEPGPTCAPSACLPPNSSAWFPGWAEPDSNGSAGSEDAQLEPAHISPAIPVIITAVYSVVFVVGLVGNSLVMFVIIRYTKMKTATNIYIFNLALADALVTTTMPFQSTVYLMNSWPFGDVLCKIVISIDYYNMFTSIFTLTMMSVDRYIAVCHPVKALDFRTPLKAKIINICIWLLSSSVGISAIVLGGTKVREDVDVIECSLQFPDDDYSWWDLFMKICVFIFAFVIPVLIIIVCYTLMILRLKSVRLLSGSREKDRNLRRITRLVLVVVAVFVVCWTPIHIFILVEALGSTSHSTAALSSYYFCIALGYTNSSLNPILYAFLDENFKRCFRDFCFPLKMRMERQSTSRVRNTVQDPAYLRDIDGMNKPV

CC1CC(C)(C)N(C(=O)CN2C(=O)c3ccccc3C2=O)c2ccc(C(=O)N3CCN(C(=O)CCC4=[N+]5C(=Cc6ccc(-c7ccc[nH]7)n6[B-]5(F)F)C=C4)CC3)cc21 (stereo not shown) — association rate constant (Mucolipin-1 (MCOLN1, Homo sapiens, UniProt Q9GZU1); BRET; HEK293T; 1.3 and 0.67 µM): 4080 ± 2.5e+06 M⁻¹ s⁻¹
[123I]c1ccc2nc(-c3ccc(-n4ccnn4)nc3)cn2c1 — SUVR (Amyloid-beta precursor protein, amyloid-beta (APP, Homo sapiens, UniProt P05067); SPECT; healthy controls, Temporal cortex; 120 to 210 min; baseline: cerebellum): 0.85 ± 0.07
CC1=C(/C=C/C(C)=C/C=C/C(C)=C/C=O)C(C)(C)CCC1 — Hill coefficient (CNGA1/CNGB1 (Bos taurus, UniProt Q00194+Q28181); ion current, inhibitor, inside-out patch clamp; Xenopus oocytes, heteromeric rod CNG; +100 mV, together with: cGMP 2 mM): 1.8
COc1cc(CC(=O)O)ccc1O — ΔH (p-hydroxyphenylacetate 3-hydroxylase, reductase component (C1-hpah, Acinetobacter baumannii, UniProt Q6Q271); ITC; pH 7): -3.03 ± 0.05 kcal/mol
COc1cc(-c2cnc3nc2NCCCNS(=O)(=O)c2cccc(c2)N3)ccc1F — thermal shift ΔTm (EPHA5 (Homo sapiens, UniProt P54756); differential scanning fluorimetry; 10 µM; higher = stronger binding): 5.4 K
CCCCCCCCCC(=O)Nc1ccc(OC)nc1C — specific activity (Carboxylesterase 3 (CES3, Homo sapiens, UniProt Q6UWW8); substrate; 50 µM, pH 8, 37 °C, enzyme purity 3%): 10 pmol/min/µg
CC(C)n1c(-c2ccc(-c3ccc(C(=N)N)c(Cl)c3)s2)nc2cc3nc(-c4ccc(-c5ccc(C(=N)N)c(Cl)c5)s4)n(C(C)C)c3cc21 — Kd (T1, dsDNA, hairpin; SPR; pH 7.4, Na+ 100 mM): 62 nM
NCCCC[C@H](NC(=O)[C@H](C/C=C\C[C@H](NC(=O)[C@@H]1CCCN1)C(=O)N[C@@H](CCCCN)C(=O)NCCCN)NC(=O)[C@@H]1CCCN1)C(=O)NCCCN — residence time ((CAG)10 RNA; SPR): 36 s
C[C@H](NC(=O)[C@H](Cc1ccc(O)cc1)NC(=O)[C@H](Cc1ccc(O)cc1)NC(=O)[C@H](CCC(=O)O)NC(=O)[C@H](CCCCN)NC(=O)[C@H](CCC(N)=O)NC(=O)[C@H](CO)NC(=O)[C@H](CO)NS(=O)(=O)c1cccc2c(N(C)C)cccc12)C(=O)O — binding free energy (Rho guanine nucleotide exchange factor TIAM1, PDZ domain (TIAM1, Homo sapiens, UniProt Q13009); fluorescence anisotropy; 25 °C): -5.35 ± 0.05 kcal/mol
Cc1ncsc1-c1ccc([C@@H]2CCCCNC(=O)C[C@@H]3N=C(c4ccc(cc4)OCCCCC(=O)N[C@@H](C(C)(C)C)C(=O)N4C[C@H](O)C[C@H]4C(=O)N2)c2c(sc(C)c2C)-n2c(C)nnc23)cc1 — degradation (Bromodomain-containing protein 4, long isoform (BRD4, Homo sapiens, UniProt O60885); degrader, immunoblotting, refers to: BRD4 long isoform; PC-3; 100 nM, 24 h): 84%
COc1cc(C2CC(=O)Nc3nc(N)[nH]c(=O)c32)ccc1O (stereo not shown) — ΔH (uncharacterized protein (Leishmania donovani, UniProt A0A3Q8IA09); competitive ITC; together with: glutamate 60 µM): -16.5 ± 1.2 kcal/mol
O=C(c1ccccc1)c1cc(O)c(-c2cc(Cl)cc(Cl)c2)c(O)c1 — Emax (CNR2 (Homo sapiens, UniProt P34972); cAMP level, agonist; HEK-CNG cells; baseline: baseline): 54.8 ± 3.23%
CC(C)C[C@H](NC(=O)[C@H](CC(N)=O)NC(=O)[C@H](CCC(=O)O)NC(=O)[C@@H](N)CS)C(=O)O — remaining activity (PPO3; enzyme activity, inhibitor; 25 µM): 84.2%
CC(=O)Nc1ncc(CN2CC[C@H](Oc3cccc([18F])n3)C[C@@H]2C)s1 — time to stable VT (Protein O-GlcNAcase (OGA, Homo sapiens, UniProt O60502); PET; human, brain; concentration not given, VT 90% of 3-h value): 110 min
CC1c2c(F)cccc2CCN1CC(=O)O (stereo not shown) — binding (DUSP3 (Homo sapiens, UniProt P51452); ligand-observed 19F NMR; concentration not given, together with: DUSP3 4 or 8 µM): active
Cc1cccc(C)c1NC(=O)CC(C)NCc1ccccc1 (stereo not shown) — Hill coefficient (SCN4A (Homo sapiens, UniProt P35499, F1586C); phasic block of sodium current, whole-cell patch clamp; HEK293; 10 Hz stimulation): 1 ± 0.1
O=C(CCn1c2ccccc2c2ccccc21)N(c1ccc(F)cc1)c1ccc(F)cc1 — maximum fold increase (Proteasome subunit alpha type-2/Proteasome subunit alpha type-6 20S proteasome; proteolysis, activator, fluorogenic peptide; purified 20S proteasome; up to 30 µM, together with: Suc-LLVY-AMC, Z-LLE-AMC, Boc-LRR-AMC; baseline: vehicle): 5.8 ± 1.4
CC(C)C[C@H](NC(=O)[C@H](CC(N)=O)NC(=O)[C@H](CCCNC(=N)N)NC(=O)[C@@H](N)CS)C(=O)O — remaining activity (PPO3; enzyme activity, inhibitor; 50 µM): 46.9%
O=C(CCn1c2ccccc2c2ccc(Cl)cc21)N(c1ccc(F)cc1)c1ccc(F)cc1 — maximum fold increase (Proteasome subunit alpha type-2/Proteasome subunit alpha type-6 20S proteasome; proteolysis, activator, fluorogenic peptide; purified 20S proteasome; up to 30 µM, together with: Suc-LLVY-AMC, Z-LLE-AMC, Boc-LRR-AMC; baseline: vehicle): 4.5 ± 1.2
N=C(N)NCCC[C@H](NC(=O)CNC(=O)CNC(=O)[C@H](CCCNC(=N)N)NC(=O)[C@H](Cc1ccc(O)cc1)NC(=O)[C@H](Cc1c[nH]c2ccccc12)NC(=O)[C@H](CCCNC(=N)N)NC(=O)[C@@H](N)Cc1c[nH]c2ccccc12)C(=O)N[C@@H](Cc1ccc(O)cc1)C(=O)N[C@@H](Cc1c[nH]c2ccccc12)C(=O)N[C@@H](CCCNC(=N)N)C(=O)N[C@@H](Cc1c[nH]c2ccccc12)C(N)=O (single isomer, unassigned) — KD ratio (Holliday junction DNA; competition EMSA; together with: salmon sperm DNA; baseline: with over without competitor): ~50 fold
Cc1ccc(-c2nc3n(ccc4nc(-c5ccc(C)cc5)c(C=NNC(=N)N)n43)c2C=NNC(=N)N)cc1 — melting temperature shift (T2, dsDNA, hairpin duplex; CD melting; DNA 15 µM, KCl 20 mM): 4.1 °C
C[n+]1c(C=Cc2ccc(O)c(C=Cc3sc4ccccc4[n+]3C)c2)sc2ccccc21 — binding (T3, dsDNA; fluorescence enhancement): binds weakly
OC1CCCN(CCCNc2cc(-c3ccccc3)nc3ccnn23)C1 (stereo not shown) — signal attenuation (DNA dC->dU-editing enzyme APOBEC-3B, C-terminal domain (Homo sapiens, UniProt Q9UH17); binding, 1H CPMG NMR; 20 µM protein): 59% and 58.8%
COc1ccc2c(c1Br)CC[C@@H]1[C@@H]2CC[C@@]2(C)C(=O)CC[C@@H]12 — inhibition (AKR1C1 (Homo sapiens, UniProt Q04828); enzyme activity, inhibitor, absorbance; 100 µM, pH 9): 12.5%
FC(F)(F)Oc1ccc2[nH]c(-c3ccc(OCCN4CCOCC4)cn3)nc2c1 — RUNX1 binding (Core-binding factor subunit beta, with RUNX1 (Homo sapiens, UniProt Q13951); co-immunoprecipitation, inhibitor; SEM; 10 µM, 6 h): decreased
CC(C)C[C@H](NC(=O)[C@H](CCCNC(=N)N)NC(=O)[C@@H](N)CS)C(=O)N[C@@H](CC(N)=O)C(=O)O — remaining activity (PPO3; enzyme activity, inhibitor; 12.5 µM): 88.6%
CCNC(=O)[C@H](CC(C)C)NC(=O)[C@H](Cc1c[nH]cn1)NC(=O)CNC(=O)[C@@H](NC(=O)[C@H](C)NC(=O)[C@H](Cc1c[nH]c2ccccc12)NC(=O)[C@H](CCC(N)=O)NC(=O)[C@H](N)Cc1ccccc1)C(C)C — calcium release (GRPR (Homo sapiens, UniProt P30550); FLIPR calcium; PC-3; 50 nM): 42 ± 20.4 RFU
COc1ccc(S(=O)(=O)N(CC(=O)O)c2c(C)c(C)c(N(CC(=O)O)S(=O)(=O)c3cccnc3)c(C)c2C)cc1 — Keap1-Nrf2 co-precipitation (Keap1, with Nrf2 (Rattus norvegicus, UniProt P57790); inhibitor, co-immunoprecipitation; H9c2; 10 µM): decreased
COc1cc(F)c(C(C)C)cc1C1=C(CN2C(=O)O[C@H](c3cc(C(F)(F)F)cc(C(F)(F)F)c3)[C@@H]2C)CC(C)(C)CC1 — maximum inhibition (Cholesteryl ester transfer protein (Homo sapiens, UniProt P11597); enzyme activity; healthy male subjects, plasma; oral, 100 mg single dose; baseline: baseline): 78.3%
CC(C)C[C@H](NC(=O)[C@H](CO)NC(=O)[C@H](CC(C)C)NC(=O)[C@@H]1CCCN1C(=O)CNC(=O)[C@H](Cc1ccccc1)NC(=O)[C@@H](N)Cc1ccccc1)C(=O)N[C@@H](CCCNC(=N)N)C(=O)N[C@@H](CO)C(=O)N[C@@H](CCCCN)C(=O)O — hydrolysis product (MMP9 (Homo sapiens, UniProt P14780); substrate, HPLC; 500 µM, 72 h, pH 7.5, 37 °C): 100%
NC(=O)c1cccc(CN(C(=O)NC(CN2CCCCC2)c2ccccc2)C(CN2CCCCC2)c2ccccc2)c1 (stereo not shown) — bias factor (OPRK1 (Homo sapiens, UniProt P41145); Gi signalling): 1.3
Cc1cc(N2CC[C@@](C#N)(C3(C)CC3)C2=O)cc(C(=O)NCc2cc(F)cc(-c3cnn(C)c3)c2)n1 — melting temperature (Proline--tRNA ligase (Plasmodium falciparum, UniProt Q8I5R7); thermal shift; together with: ATP 2 mM): 77.2 °C
CC[C@H](C)[C@H](NC(=O)[C@H](CCCCN)NC(=O)[C@H](CCCCN)NC(=O)[C@@H](NC(=O)[C@H](CCC(=O)O)NC(=O)[C@H](CCC(=O)O)NC(=O)[C@H](CCC(=O)O)NC(=O)[C@H](CO)NC(=O)[C@H](CC(C)C)NC(=O)[C@H](CC(=O)O)NC(=O)[C@H](CC(C)C)NC(=O)CNC(=O)[C@H](CCCNC(=N)N)NC(=O)[C@H](CC(C)C)NC(=O)[C@H](CO)NC(=O)CNC(=O)CNC(=O)CNC(=O)CCCC[C@@H]1SC[C@@H]2NC(=O)N[C@@H]21)C(C)C)C(=O)N[C@@H](CC(C)C)C(=O)N[C@@H](CC(=O)O)C(=O)N[C@@H](CCC(=O)O)C(=O)N[C@H](C(=O)N[C@H](C(=O)N[C@@H](CCCCN)C(=O)N[C@@H](CC(=O)O)C(=O)N1CCC[C@H]1C(=O)N[C@@H](CO)C(=O)N[C@@H](C)C(=O)O)C(C)C)[C@@H](C)CC — Kd ratio (Fab B11 antibody (human); binding, biolayer interferometry; baseline: alanine mutant over wild type): 1.6
CCCCCCCC(=O)Oc1ccc2c(c1)C(C)(C)C1=C(Cl)C(=O)C(Cl)=CC1=N2 — Vmax (NOTUM (Homo sapiens, UniProt Q6P988); substrate): 1.13 µmol/min/mg
CC[C@H](C)[C@H](NC(=O)[C@H](Cc1ccc(O)cc1)NC(=O)[C@@H](NC(=O)[C@H](CCCNC(=N)N)NC(=O)[C@@H](N)CC(=O)O)C(C)C)C(=O)N[C@@H](Cc1c[nH]cn1)C(=O)N1CCC[C@H]1C(=O)O — Km (angiotensin peptidase; substrate; BMX sheep CSF): 12.3 µM
CC(=O)N[C@H](C(=O)N[C@@H](CC(C)C)C(=O)N[C@@H](CC(=O)O)C(=O)N[C@@H](CO)C(=O)N[C@@H](Cc1ccccc1)C(=O)N[C@@H](CCCCN)C(=O)N[C@H](C(=O)N[C@@H](CO)C(=O)N[C@@H](Cc1ccccc1)C(=O)N[C@@H](CC(C)C)C(=O)N[C@@H](CO)C(=O)N[C@@H](C)C(=O)N[C@@H](CC(C)C)C(=O)N[C@@H](CCC(=O)O)C(=O)N[C@@H](CCC(=O)O)C(=O)N[C@@H](Cc1ccc(O)cc1)C(=O)N[C@H](C(=O)N[C@@H](CCCCN)C(=O)N[C@@H](CCCCN)C(=O)N[C@@H](CC(C)C)C(=O)N[C@@H](CC(N)=O)C(=O)N[C@H](C(=O)N[C@@H](CCC(N)=O)C(N)=O)[C@@H](C)O)[C@@H](C)O)C(C)C)C(C)C — cholesterol efflux (SCARB1 (Homo sapiens, UniProt Q8WTV0); BHK transfected with SCARB1; 18 h): no effect
[3H]C(CNC(=O)c1ccc(-c2ccsc2)cc1)C([3H])CN1CCN(c2ccccc2OCCF)CC1 (stereo not shown) — Bmax (Drd3 (Rattus norvegicus, UniProt P19020); radioligand, saturation binding; rat nucleus accumbens; 30 min, 37 °C): 99.8 ± 16 fmol/mg protein

Repeated from above:
CC(C)n1c(-c2ccc(-c3ccc(C(=N)N)c(Cl)c3)s2)nc2cc3nc(-c4ccc(-c5ccc(C(=N)N)c(Cl)c5)s4)n(C(C)C)c3cc21 — Kd (T1, dsDNA, hairpin; SPR; pH 7.4, Na+ 100 mM): 62 nM
NCCCC[C@H](NC(=O)[C@H](C/C=C\C[C@H](NC(=O)[C@@H]1CCCN1)C(=O)N[C@@H](CCCCN)C(=O)NCCCN)NC(=O)[C@@H]1CCCN1)C(=O)NCCCN — residence time ((CAG)10 RNA; SPR): 36 s
C[C@H](NC(=O)[C@H](Cc1ccc(O)cc1)NC(=O)[C@H](Cc1ccc(O)cc1)NC(=O)[C@H](CCC(=O)O)NC(=O)[C@H](CCCCN)NC(=O)[C@H](CCC(N)=O)NC(=O)[C@H](CO)NC(=O)[C@H](CO)NS(=O)(=O)c1cccc2c(N(C)C)cccc12)C(=O)O — binding free energy (Rho guanine nucleotide exchange factor TIAM1, PDZ domain (TIAM1, Homo sapiens, UniProt Q13009); fluorescence anisotropy; 25 °C): -5.35 ± 0.05 kcal/mol
